Experimental data of several laboratories.
± marks the error that the study gave.
CFTR del508-508: Cystic fibrosis transmembrane conductance regulator (CFTR, Homo sapiens, UniProt P13569, del508-508)
UniProt P13569, sequence (whole entry, unmodified, looked up): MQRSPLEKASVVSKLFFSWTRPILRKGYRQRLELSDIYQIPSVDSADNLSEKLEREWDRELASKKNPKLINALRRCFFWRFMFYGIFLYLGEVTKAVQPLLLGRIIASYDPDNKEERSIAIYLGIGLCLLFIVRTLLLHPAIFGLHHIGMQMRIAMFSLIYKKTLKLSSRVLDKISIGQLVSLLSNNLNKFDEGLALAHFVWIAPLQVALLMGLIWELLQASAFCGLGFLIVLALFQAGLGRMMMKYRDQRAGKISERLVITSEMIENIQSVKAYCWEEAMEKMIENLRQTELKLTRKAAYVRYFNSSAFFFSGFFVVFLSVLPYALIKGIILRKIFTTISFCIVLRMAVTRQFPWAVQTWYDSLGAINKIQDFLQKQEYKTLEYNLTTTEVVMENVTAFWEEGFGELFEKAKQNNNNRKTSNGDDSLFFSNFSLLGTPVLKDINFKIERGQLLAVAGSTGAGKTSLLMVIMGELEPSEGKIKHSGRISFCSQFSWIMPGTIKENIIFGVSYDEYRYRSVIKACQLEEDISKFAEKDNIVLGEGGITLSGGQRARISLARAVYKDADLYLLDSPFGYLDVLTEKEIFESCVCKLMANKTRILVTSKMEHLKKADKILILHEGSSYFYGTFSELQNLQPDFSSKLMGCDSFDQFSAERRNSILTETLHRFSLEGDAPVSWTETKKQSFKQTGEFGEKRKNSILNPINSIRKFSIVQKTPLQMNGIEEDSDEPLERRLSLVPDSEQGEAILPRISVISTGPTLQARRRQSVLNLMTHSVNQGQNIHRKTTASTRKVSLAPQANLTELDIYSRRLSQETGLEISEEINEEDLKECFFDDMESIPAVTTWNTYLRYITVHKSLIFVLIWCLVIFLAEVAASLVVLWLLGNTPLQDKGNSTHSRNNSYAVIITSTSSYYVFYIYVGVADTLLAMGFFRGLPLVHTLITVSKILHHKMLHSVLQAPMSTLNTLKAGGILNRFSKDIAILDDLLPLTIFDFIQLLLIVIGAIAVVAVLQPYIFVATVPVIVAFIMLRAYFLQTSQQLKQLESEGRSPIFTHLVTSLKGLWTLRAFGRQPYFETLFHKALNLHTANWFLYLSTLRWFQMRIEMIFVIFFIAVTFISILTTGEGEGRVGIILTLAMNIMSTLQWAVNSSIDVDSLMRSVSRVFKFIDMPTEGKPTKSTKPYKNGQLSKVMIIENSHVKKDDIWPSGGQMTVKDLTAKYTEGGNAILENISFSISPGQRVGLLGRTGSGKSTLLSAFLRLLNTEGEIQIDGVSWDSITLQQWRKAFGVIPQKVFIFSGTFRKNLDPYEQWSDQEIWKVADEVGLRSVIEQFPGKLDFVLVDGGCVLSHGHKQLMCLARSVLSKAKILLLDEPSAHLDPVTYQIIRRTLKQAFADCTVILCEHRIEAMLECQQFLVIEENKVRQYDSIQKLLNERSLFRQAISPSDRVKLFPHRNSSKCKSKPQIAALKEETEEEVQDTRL

SMILES = COc1ccc(C(=O)N2CCN(c3nc4cc(C)cc(C)c4cc3C#N)CC2)cc1; target = CFTR del508-508; assay = ΔF508-CFTR correction, corrector; test system = FRT; setting = up to 25 µM, 37 °C, with: forskolin 20 µM + genistein 50 µM; quantity = EC50; value = inactive
SMILES = COC(=O)CCC(=O)Nc1nc2c(s1)-c1nc(Nc3cc(Cl)ccc3OC)sc1CCC2; target = CFTR del508-508; assay = iodide influx, corrector, YFP halide quenching; test system = FRT cells expressing YFP-H148Q/I152L; setting = 16 to 20 h, 37 °C, genistein 50 µM, with: forskolin 20 µM; quantity = Vmax; value = 678 µM/s
SMILES = Cc1cc(C)c2cc(C#N)c(NCCNC(=O)c3ccccc3)nc2c1; target = CFTR del508-508; assay = ΔF508-CFTR correction, corrector; test system = FRT; setting = up to 25 µM, 37 °C, with: forskolin 20 µM + genistein 50 µM; quantity = EC50; value = inactive
SMILES = COC(=O)CCC(=O)Nc1nc2c(s1)-c1nc(Nc3cc(Cl)ccc3OC)sc1CCCC2; target = CFTR del508-508; assay = iodide influx, corrector, YFP halide quenching; test system = FRT cells expressing YFP-H148Q/I152L; setting = 16 to 20 h, 37 °C, genistein 50 µM, with: forskolin 20 µM; quantity = Vmax; value = 481 µM/s
SMILES = C=CCn1nc(-c2sc(NC(=O)C(C)(C)C)nc2C)cc1C(=O)Nc1ccc(OC)cc1; target = CFTR del508-508; assay = iodide influx, corrector, YFP quenching; test system = FRT expressing ΔF508-CFTR and YFP-H148Q/I152L; setting = with: forskolin 20 µM + genistein 50 µM; quantity = Vmax; value = 0.5 µM/s
SMILES = O=c1cc(-c2ccc(O)cc2)oc2cc(O)cc(O)c12; target = CFTR (Homo sapiens, UniProt P13569); assay = ion current, whole-cell patch clamp; test system = Calu-3; setting = 50 µM, with: forskolin; scale = relative to: forskolin-stimulated current; quantity = activation; value = 319 ± 60%
SMILES = CN(C)c1ccc(Cl)cc1Nc1nc2c(s1)CCCc1nc(NC(=O)C(C)(C)C)sc1-2; target = CFTR del508-508; assay = iodide influx, corrector, YFP halide quenching; test system = FRT cells expressing YFP-H148Q/I152L; setting = 16 to 20 h, 37 °C, genistein 50 µM, with: forskolin 20 µM; quantity = Vmax; value = 366 µM/s
SMILES = Cc1nc(NC(=O)C(C)(C)C)sc1-c1cc(C(=O)NCc2ccccc2)n(Cc2ccccc2)n1; target = CFTR del508-508; assay = iodide influx, corrector, YFP quenching; test system = FRT expressing ΔF508-CFTR and YFP-H148Q/I152L; setting = with: forskolin 20 µM + genistein 50 µM; quantity = Vmax; value = 1 µM/s
SMILES = CCCC(=O)O; target = CFTR (Homo sapiens, UniProt P13569, N1303K); assay = corrector; test system = FRT cells expressing CFTR; setting = 3 mM, 24 h, with: forskolin, potentiator 5 µM; scale = relative to: no corrector; quantity = short-circuit current increase; value = 2 to 3 fold
SMILES = COc1ccc(NC(=O)c2cc(-c3sc(NC(=O)C(C)(C)C)nc3C)n(-c3ccc(Br)cc3)n2)cc1; target = CFTR del508-508; assay = iodide influx, corrector, YFP quenching; test system = FRT expressing ΔF508-CFTR and YFP-H148Q/I152L; setting = with: forskolin 20 µM + genistein 50 µM; quantity = Vmax; value = 2.5 µM/s
SMILES = COc1ccc(Cl)cc1Nc1nc2c(s1)CCCc1nc(NC(=O)C3CC3)sc1-2; target = CFTR del508-508; assay = iodide influx, corrector, YFP halide quenching; test system = FRT cells expressing YFP-H148Q/I152L; setting = 16 to 20 h, 37 °C, genistein 50 µM, with: forskolin 20 µM; quantity = Vmax; value = 473 µM/s
SMILES = Cc1cc(C)c2cc(C#N)c(NCCCNC(=O)c3ccccn3)nc2c1; target = CFTR del508-508; assay = ΔF508-CFTR correction, corrector; test system = FRT; setting = up to 25 µM, 37 °C, with: forskolin 20 µM + genistein 50 µM; quantity = EC50; value = inactive
SMILES = COc1ccc(Cl)cc1Cn1nc(-c2sc(NC(=O)C(C)(C)C)nc2C)cc1C(=O)NCCO; target = CFTR del508-508; assay = iodide influx, corrector, YFP quenching; test system = FRT expressing ΔF508-CFTR and YFP-H148Q/I152L; setting = with: forskolin 20 µM + genistein 50 µM; quantity = Vmax; value = 2.4 µM/s
SMILES = COc1ccc(C(=O)NCCNc2nc3cc(C)cc(C)c3cc2C#N)c(OC)c1; target = CFTR del508-508; assay = CFTR correction, corrector, iodide influx rate; test system = FRT expressing YFP-H148Q/I152L; setting = up to 25 µM, 16-20 h, 37 °C, with: forskolin 20 µM, genistein 50 µM; quantity = Vmax; value = 108 µM/s
SMILES = CC(C)(C)c1cc(C(C)(C)C)c(NC(=O)c2c[nH]c3ccccc3c2=O)cc1O; target = CFTR (Homo sapiens, UniProt P13569, G551D); assay = short-circuit current, potentiator; test system = CFBE; setting = 14.44 µM, with: forskolin 20 µM; scale = relative to: PKA-activated wild type; quantity = CFTR activity; value = 4.4 ± 1.1%

Excerpt of the above:
SMILES = COC(=O)CCC(=O)Nc1nc2c(s1)-c1nc(Nc3cc(Cl)ccc3OC)sc1CCCC2; target = CFTR del508-508; assay = iodide influx, corrector, YFP halide quenching; test system = FRT cells expressing YFP-H148Q/I152L; setting = 16 to 20 h, 37 °C, genistein 50 µM, with: forskolin 20 µM; quantity = Vmax; value = 481 µM/s
